Measured values from different studies.
Each line is one published result; not all experiments were run side by side. “And” joins repeats or separate records; there may be more than shown. ± gives the spread as reported.
YES1 SH2 domain: Tyrosine-protein kinase Yes, SH2 domain (YES1, Homo sapiens, UniProt P07947)
UniProt P07947, sequence (whole entry, looked up): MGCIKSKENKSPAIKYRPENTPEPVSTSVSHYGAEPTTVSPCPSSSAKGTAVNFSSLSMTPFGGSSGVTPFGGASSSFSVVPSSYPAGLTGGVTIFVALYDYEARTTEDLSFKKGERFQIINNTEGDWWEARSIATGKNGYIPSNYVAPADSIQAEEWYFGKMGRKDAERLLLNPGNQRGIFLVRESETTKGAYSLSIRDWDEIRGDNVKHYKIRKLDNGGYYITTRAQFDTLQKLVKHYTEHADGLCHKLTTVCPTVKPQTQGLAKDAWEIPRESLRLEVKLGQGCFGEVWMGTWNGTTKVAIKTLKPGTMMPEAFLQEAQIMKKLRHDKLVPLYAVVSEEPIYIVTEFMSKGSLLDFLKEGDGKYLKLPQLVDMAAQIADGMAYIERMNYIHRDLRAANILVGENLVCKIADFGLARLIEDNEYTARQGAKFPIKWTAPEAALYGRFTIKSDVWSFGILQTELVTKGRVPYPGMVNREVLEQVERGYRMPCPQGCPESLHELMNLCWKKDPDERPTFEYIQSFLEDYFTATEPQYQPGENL
PRT1: E3 ubiquitin-protein ligase PRT1 (PRT1, Arabidopsis thaliana, UniProt Q8LBL5)
UniProt Q8LBL5, sequence (whole entry, looked up): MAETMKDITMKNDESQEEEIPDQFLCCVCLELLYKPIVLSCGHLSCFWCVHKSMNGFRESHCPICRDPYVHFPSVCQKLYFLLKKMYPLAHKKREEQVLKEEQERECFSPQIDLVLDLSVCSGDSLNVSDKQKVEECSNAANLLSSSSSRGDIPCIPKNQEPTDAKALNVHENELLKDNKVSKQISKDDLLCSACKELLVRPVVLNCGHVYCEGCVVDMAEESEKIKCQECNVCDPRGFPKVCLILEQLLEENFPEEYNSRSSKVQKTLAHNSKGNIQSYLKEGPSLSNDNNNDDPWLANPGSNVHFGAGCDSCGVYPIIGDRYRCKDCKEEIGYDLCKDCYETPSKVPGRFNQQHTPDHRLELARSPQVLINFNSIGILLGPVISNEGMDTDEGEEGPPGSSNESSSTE
Phosphatidylinositol 3-kinase regulatory subunit gamma SH2 domain: Phosphatidylinositol 3-kinase regulatory subunit gamma, SH2 domain (Homo sapiens, UniProt Q92569)
UniProt P21553, sequence (whole entry, looked up): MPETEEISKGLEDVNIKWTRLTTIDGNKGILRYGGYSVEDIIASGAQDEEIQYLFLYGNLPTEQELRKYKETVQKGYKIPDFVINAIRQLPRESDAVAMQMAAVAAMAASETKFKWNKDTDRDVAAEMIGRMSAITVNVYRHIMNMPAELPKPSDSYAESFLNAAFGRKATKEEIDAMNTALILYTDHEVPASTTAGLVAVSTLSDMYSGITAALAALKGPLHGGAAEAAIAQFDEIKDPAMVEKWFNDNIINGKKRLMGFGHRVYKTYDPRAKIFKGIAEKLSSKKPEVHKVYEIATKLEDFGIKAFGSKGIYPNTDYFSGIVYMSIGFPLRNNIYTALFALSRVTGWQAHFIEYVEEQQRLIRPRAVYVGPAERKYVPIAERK
UniProt P43298, sequence (whole entry, looked up): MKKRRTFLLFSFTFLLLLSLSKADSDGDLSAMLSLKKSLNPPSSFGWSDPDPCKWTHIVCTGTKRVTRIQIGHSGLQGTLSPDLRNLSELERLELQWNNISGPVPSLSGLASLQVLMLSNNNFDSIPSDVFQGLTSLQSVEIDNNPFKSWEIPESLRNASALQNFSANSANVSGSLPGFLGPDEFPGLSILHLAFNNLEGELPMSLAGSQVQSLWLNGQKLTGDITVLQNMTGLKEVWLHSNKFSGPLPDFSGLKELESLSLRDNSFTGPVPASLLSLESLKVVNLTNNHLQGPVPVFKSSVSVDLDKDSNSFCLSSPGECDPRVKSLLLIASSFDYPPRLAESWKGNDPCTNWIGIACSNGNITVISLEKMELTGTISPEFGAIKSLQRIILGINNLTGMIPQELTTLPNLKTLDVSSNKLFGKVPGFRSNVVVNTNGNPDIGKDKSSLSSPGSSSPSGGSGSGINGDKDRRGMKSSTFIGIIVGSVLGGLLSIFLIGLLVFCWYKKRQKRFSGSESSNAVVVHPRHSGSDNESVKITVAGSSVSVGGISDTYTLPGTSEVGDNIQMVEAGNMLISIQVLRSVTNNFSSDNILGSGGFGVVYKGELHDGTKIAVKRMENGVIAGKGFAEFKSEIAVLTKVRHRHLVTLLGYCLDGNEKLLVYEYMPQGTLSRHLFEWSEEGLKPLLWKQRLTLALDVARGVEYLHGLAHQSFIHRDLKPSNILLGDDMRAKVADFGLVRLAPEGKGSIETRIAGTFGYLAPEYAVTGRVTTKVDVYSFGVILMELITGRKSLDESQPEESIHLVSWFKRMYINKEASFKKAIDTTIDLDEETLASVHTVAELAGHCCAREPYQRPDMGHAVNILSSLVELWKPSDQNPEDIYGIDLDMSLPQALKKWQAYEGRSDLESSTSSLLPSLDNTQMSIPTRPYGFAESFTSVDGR
UniProt O96013, sequence (whole entry, looked up): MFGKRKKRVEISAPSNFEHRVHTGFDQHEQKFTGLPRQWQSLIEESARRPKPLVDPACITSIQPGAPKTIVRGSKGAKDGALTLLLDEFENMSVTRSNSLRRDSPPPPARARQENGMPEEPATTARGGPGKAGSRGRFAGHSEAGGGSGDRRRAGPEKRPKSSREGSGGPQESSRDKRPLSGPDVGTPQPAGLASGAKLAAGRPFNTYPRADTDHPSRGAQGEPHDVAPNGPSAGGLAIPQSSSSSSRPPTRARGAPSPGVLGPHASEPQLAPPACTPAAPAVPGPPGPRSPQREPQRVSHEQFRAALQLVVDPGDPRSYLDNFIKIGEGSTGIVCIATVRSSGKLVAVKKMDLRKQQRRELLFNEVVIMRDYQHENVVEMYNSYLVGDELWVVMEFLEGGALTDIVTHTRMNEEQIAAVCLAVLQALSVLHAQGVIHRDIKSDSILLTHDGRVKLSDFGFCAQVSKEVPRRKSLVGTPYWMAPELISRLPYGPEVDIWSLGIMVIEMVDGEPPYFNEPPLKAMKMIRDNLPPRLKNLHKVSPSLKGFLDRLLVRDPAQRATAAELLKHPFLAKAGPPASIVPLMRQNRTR
UniProt O49687, sequence (55-253, looked up): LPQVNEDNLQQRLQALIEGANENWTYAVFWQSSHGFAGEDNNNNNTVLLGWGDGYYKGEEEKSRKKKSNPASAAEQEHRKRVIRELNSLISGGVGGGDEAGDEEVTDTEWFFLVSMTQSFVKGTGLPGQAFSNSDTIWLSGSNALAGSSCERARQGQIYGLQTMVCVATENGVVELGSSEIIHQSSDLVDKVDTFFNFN
UniProt P40874, sequence (whole entry, looked up): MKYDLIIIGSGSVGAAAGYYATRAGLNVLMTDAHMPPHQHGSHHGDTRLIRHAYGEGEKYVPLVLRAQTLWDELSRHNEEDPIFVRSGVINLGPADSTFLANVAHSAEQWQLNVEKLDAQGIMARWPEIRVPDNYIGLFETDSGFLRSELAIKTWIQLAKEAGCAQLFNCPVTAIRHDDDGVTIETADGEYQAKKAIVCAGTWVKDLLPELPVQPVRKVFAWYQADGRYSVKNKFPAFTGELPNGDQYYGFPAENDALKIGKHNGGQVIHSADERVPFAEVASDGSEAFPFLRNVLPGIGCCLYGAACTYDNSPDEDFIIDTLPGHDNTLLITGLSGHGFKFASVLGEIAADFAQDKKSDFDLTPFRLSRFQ
UniProt P03023, sequence (whole entry, unmodified, looked up): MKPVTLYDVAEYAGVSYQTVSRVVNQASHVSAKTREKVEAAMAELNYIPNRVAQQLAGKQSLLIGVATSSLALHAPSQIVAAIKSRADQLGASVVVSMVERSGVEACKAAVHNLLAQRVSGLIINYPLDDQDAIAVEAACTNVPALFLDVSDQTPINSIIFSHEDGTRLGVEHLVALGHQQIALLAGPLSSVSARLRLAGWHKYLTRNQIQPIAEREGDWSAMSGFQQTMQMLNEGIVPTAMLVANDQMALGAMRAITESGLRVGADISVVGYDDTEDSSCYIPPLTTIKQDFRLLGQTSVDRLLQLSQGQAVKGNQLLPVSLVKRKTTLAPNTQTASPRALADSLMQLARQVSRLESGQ
UniProt P51451, sequence (whole entry, looked up): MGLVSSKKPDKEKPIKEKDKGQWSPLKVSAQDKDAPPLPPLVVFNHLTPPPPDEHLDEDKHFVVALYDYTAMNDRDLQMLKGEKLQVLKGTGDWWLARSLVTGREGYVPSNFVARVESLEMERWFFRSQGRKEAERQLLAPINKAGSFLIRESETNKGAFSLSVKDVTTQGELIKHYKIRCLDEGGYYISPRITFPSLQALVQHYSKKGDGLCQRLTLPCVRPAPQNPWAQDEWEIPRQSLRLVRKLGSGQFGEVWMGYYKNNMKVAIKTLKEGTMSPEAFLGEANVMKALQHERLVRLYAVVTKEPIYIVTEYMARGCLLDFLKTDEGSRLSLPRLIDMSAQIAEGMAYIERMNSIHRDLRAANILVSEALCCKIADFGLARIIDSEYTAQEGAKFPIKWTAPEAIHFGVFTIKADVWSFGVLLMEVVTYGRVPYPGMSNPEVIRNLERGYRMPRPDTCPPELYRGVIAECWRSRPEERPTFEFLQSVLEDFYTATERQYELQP

CSCC[C@H](NC(=O)[C@H](Cc1ccc(OP(=O)(O)O)cc1)NC(=O)CNC(=O)CNC(=O)[C@H](CC(=O)O)NC(=O)[C@H](CO)NC(=O)[C@H](CCC(=O)O)NC(=O)CNC(=O)[C@@H](NC(=O)[C@H](CC(C)C)NC(=O)[C@H](CO)NC(=O)c1ccc2c(c1)C(=O)OC21c2ccc(N(C)C)cc2Oc2cc(N(C)C)ccc21)[C@@H](C)O)C(=O)N[C@@H](CC(=O)O)C(=O)N[C@@H](CCSC)C(=O)N[C@@H](CO)C(=O)N[C@@H](CCCCN)C(=O)N[C@@H](CC(=O)O)C(=O)N[C@@H](CCC(=O)O)C(=O)N[C@@H](CC(=O)O)C(=O)O  Kd (YES1 SH2 domain; binding): 0.718 µM
C[C@H](NC(=O)[C@H](CCCCN)NC(=O)[C@@H](N)Cc1ccc(O)cc1)C(=O)O  Kd (PRT1; ITC; pH 7.5, 25 °C): 14.9 ± 0.642 µM
O=C(O)CCCc1c[nH]c2ccccc12  Kd (Receptor protein kinase TMK1, extracellular domain (TMK1, Arabidopsis thaliana, UniProt P43298); binding): 6.14 µM
CC[C@@H](C)[C@@H](NC(=O)[C@@H](Cc1ccc(O)cc1)NC(=O)[C@H]1CCCN1C(=O)[C@@H](CCCNC(=N)N)NC(=O)[C@H](N)Cc1c[nH]cn1)C(=O)N[C@H](C)C(=O)N[C@H](Cc1c[nH]cn1)C(=O)N[C@H](CCCNC(=N)N)C(=O)N[C@@H](C(=O)N[C@H](Cc1ccc(O)cc1)C(=O)N[C@H](CO)C(=O)N[C@H](Cc1ccccc1)C(N)=O)C(C)C  Kd (Cd274 (Mus musculus, UniProt Q9EP73); microscale thermophoresis; 6 h, His-tagged protein): 4.2 ± 2.5 µM
CN[C@@H](Cc1c[nH]c2ccccc12)C(=O)O  Kd (N-methyl-L-tryptophan oxidase, reduced (solA, Escherichia coli, UniProt P40874); spectral titration, anaerobic; pH 8.0, 25 °C): 934 ± 218 µM
Cn1c2cccc(=O)c-2nc2ccccc21  Kd (Multidrug resistance operon repressor (mexR, Pseudomonas aeruginosa, UniProt P52003, C62A/M61A/Q60A)): 258 µM
CC(=O)CCCNC(=O)CCNC(=O)[C@H](O)C(C)(C)COP(=O)(O)OP(=O)(O)OC[C@H]1O[C@@H](n2cnc3c(N)ncnc32)[C@H](O)[C@@H]1OP(=O)(O)O  Kd (gltA, with oxaloacetate (Thermoplasma acidophilum, UniProt P21553); binding, fluorescence titration; pH 8, 20 °C, with: oxaloacetate): 1.47 µM and 1.56 µM
CSCC[C@H](NC(=O)[C@H](CC(C)C)NC(=O)[C@H](C)NC(=O)[C@H](CCCNC(=N)N)NC(=O)[C@H](Cc1ccc(OP(=O)(O)O)cc1)NC(=O)[C@H](Cc1ccccc1)NC(=O)[C@H](CC(N)=O)NC(=O)[C@H](CO)NC(=O)[C@H](CC(=O)O)NC(=O)[C@@H](NC(=O)[C@@H]1CCCN1C(=O)[C@H](CO)NC(=O)[C@@H]1CCCN1C(=O)[C@H](CC(C)C)NC(=O)c1ccc2c(c1)C(=O)OC21c2ccc(N(C)C)cc2Oc2cc(N(C)C)ccc21)[C@@H](C)O)C(=O)N[C@@H](CC(=O)O)C(=O)N[C@@H](CCC(=O)O)C(=O)N[C@@H](CCC(=O)O)C(=O)N[C@@H](CC(=O)O)C(=O)O  Kd (Phosphatidylinositol 3-kinase regulatory subunit gamma SH2 domain; binding): 0.968 µM
C[C@H](NC(=O)[C@H](C)NC(=O)[C@@H](N)Cc1c[nH]c2ccccc12)C(=O)O  Kd (PRT1; ITC; pH 7.5, 25 °C): 4.29 ± 0.76 µM
CC(C)C[C@H](NC(=O)[C@H](Cc1ccc(OP(=O)(O)O)cc1)NC(=O)[C@H](CCC(=O)O)NC(=O)[C@H](C)NC(=O)[C@H](CC(N)=O)NC(=O)[C@H](CCC(=O)O)NC(=O)[C@H](C)NC(=O)[C@@H](NC(=O)[C@H](CO)NC(=O)CNC(=O)[C@H](CCCCN)NC(=O)c1ccc2c(c1)C(=O)OC21c2ccc(N(C)C)cc2Oc2cc(N(C)C)ccc21)[C@@H](C)O)C(=O)N[C@@H](CCCNC(=N)N)C(=O)N[C@H](C(=O)N[C@@H](C)C(=O)N1CCC[C@H]1C(=O)N[C@@H](CCC(N)=O)C(=O)N[C@@H](CO)C(=O)N[C@@H](CC(=O)O)C(=O)O)C(C)C  Kd (Phosphatidylinositol 3-kinase regulatory subunit gamma SH2 domain; binding): 1.11 µM
O=C(O)CNC(=O)c1cccnc1  Kd (Ubiquitin carboxyl-terminal hydrolase 49, ZnF-UBD domain (USP49, Homo sapiens, UniProt Q70CQ1)): > 1000 µM
CC[C@H](C)[C@H](NC(=O)[C@H](Cc1ccc(O)cc1)NC(=O)[C@H](CCC(=O)O)NC(=O)[C@H](Cc1c[nH]cn1)NC(=O)CNC(=O)[C@H](CC(=O)O)NC(=O)[C@H](CO)NC(=O)[C@H](CO)NC(=O)[C@@H](NC(=O)c1ccc2c(c1)C(=O)OC21c2ccc(N(C)C)cc2Oc2cc(N(C)C)ccc21)C(C)C)C(=O)N[C@@H](Cc1ccc(OP(=O)(O)O)cc1)C(=O)N[C@H](C(=O)N[C@@H](CC(=O)O)C(=O)N1CCC[C@H]1C(=O)N[C@@H](CCSC)C(=O)N[C@@H](CCC(N)=O)C(=O)N[C@@H](CC(C)C)C(=O)N1CCC[C@H]1C(=O)N[C@@H](CC(=O)O)C(=O)O)C(C)C  Kd (Tyrosine-protein kinase Blk, SH2 domain (BLK, Homo sapiens, UniProt P51451); binding): 1.9 µM
CC[C@H](CO)Nc1nc(NCc2ccc(-c3ccccn3)cc2)c2ncn(C(C)C)c2n1  Kd (PAK4 (Homo sapiens, UniProt O96013); binding, competition affinity chromatography; SH-SY5Y cell extract): 10.6 µM
CSCC[C@H](NC(=O)CNC(=O)[C@H](Cc1ccccc1)NC(=O)[C@H](CC(=O)O)NC(=O)CNC(=O)c1ccc2c(c1)C(=O)OC21c2ccc(N(C)C)cc2Oc2cc(N(C)C)ccc21)C(=O)N[C@@H](CO)C(=O)N[C@@H](CCCNC(=N)N)C(=O)N[C@@H](CC(=O)O)C(=O)N[C@H](C(=O)N[C@@H](Cc1ccc(OP(=O)(O)O)cc1)C(=O)N[C@@H](CO)C(=O)N[C@H](C(=O)N[C@@H](CC(=O)O)C(=O)N[C@@H](Cc1ccc(O)cc1)C(=O)N[C@@H](Cc1ccc(O)cc1)C(=O)N[C@@H](CCCNC(=N)N)C(=O)N[C@H](C(=O)N[C@@H](CC(=O)O)C(=O)O)C(C)C)[C@@H](C)O)C(C)C  Kd (YES1 SH2 domain; binding): 0.545 µM
CC(C)S[C@@H]1O[C@H](CO)[C@H](O)[C@H](O)[C@H]1O  Kd (lacI (Escherichia coli, UniProt P03023, D149A/N125A); binding, fluorescence titration; no operator DNA): 8.5 ± 0.2 µM
CC[C@H](C)[C@H](NC(=O)[C@H](C)NC(=O)CNC(=O)[C@H](CCC(N)=O)NC(=O)[C@@H](NC(=O)[C@H](CC(=O)O)NC(=O)[C@H](CCCNC(=N)N)NC(=O)[C@H](Cc1ccccc1)NC(=O)[C@H](CO)NC(=O)[C@H](CCCNC(=N)N)NC(=O)[C@H](CCCNC(=N)N)NC(=O)[C@H](CCCNC(=N)N)NC(=O)[C@H](CC(=O)O)NC(=O)[C@H](CC(C)C)NC(=O)[C@H](Cc1ccccc1)NC(=O)[C@H](CCCCN)NC(=O)[C@H](CCC(N)=O)NC(=O)[C@H](Cc1ccccc1)NC(=O)c1ccc(-c2c3ccc(=[N+](C)C)cc-3oc3cc(N(C)C)ccc23)c(C(=O)[O-])c1)[C@@H](C)CC)C(=O)N[C@@H](CO)C(=O)N[C@@H](CCCCN)C(=O)N[C@H](C(=O)N[C@@H](CC(=O)O)C(=O)N1CCC[C@H]1C(=O)N[C@@H](CCC(=O)O)C(=O)N[C@H](C(=O)N[C@H](C(=O)N[C@@H](CCCCN)C(=O)N[C@@H](CO)C(=O)N[C@@H](CC(C)C)C(=O)N[C@@H](CC(C)C)C(=O)N[C@@H](C)C(=O)N[C@@H](CO)C(=O)N[C@H](C(=O)O)[C@@H](C)O)[C@@H](C)CC)[C@@H](C)CC)[C@@H](C)CC  Kd (Transcription factor MYC4, residues 55-253 (MYC4, Arabidopsis thaliana, UniProt O49687); fluorescence anisotropy; protein titration, with: TMR-labelled tracer): 0.3 µM
CSCC[C@H](NC(=O)[C@H](CC(=O)O)NC(=O)c1ccc2c(c1)C(=O)OC21c2ccc(N(C)C)cc2Oc2cc(N(C)C)ccc21)C(=O)N[C@@H](CO)C(=O)N[C@@H](CCCCN)C(=O)N[C@@H](CC(=O)O)C(=O)N[C@@H](CCC(=O)O)C(=O)N[C@@H](CO)C(=O)N[C@H](C(=O)N[C@@H](CC(=O)O)C(=O)N[C@@H](Cc1ccc(OP(=O)(O)O)cc1)C(=O)N[C@H](C(=O)N1CCC[C@H]1C(=O)N[C@@H](CCSC)C(=O)N[C@@H](CC(C)C)C(=O)N[C@@H](CC(=O)O)C(=O)N[C@@H](CCSC)C(=O)N[C@@H](CCCCN)C(=O)N[C@@H](CC(=O)O)C(=O)O)C(C)C)C(C)C  Kd (1-phosphatidylinositol 4,5-bisphosphate phosphodiesterase gamma-2, SH2 domain (PLCG2, Homo sapiens, UniProt P16885); binding): 0.425 µM
NCCCC[C@H](N)C(=O)O  Kd (Uncharacterized protein (Pelagibacter ubique, UniProt Q4FM26); isothermal titration calorimetry; Candidatus Pelagibacter ubique; direct titration): 0.195 ± 0.126 µM

Some of these lines once more:
CC(=O)CCCNC(=O)CCNC(=O)[C@H](O)C(C)(C)COP(=O)(O)OP(=O)(O)OC[C@H]1O[C@@H](n2cnc3c(N)ncnc32)[C@H](O)[C@@H]1OP(=O)(O)O  Kd (gltA, with oxaloacetate (Thermoplasma acidophilum, UniProt P21553); binding, fluorescence titration; pH 8, 20 °C, with: oxaloacetate): 1.47 µM and 1.56 µM
CSCC[C@H](NC(=O)CNC(=O)[C@H](Cc1ccccc1)NC(=O)[C@H](CC(=O)O)NC(=O)CNC(=O)c1ccc2c(c1)C(=O)OC21c2ccc(N(C)C)cc2Oc2cc(N(C)C)ccc21)C(=O)N[C@@H](CO)C(=O)N[C@@H](CCCNC(=N)N)C(=O)N[C@@H](CC(=O)O)C(=O)N[C@H](C(=O)N[C@@H](Cc1ccc(OP(=O)(O)O)cc1)C(=O)N[C@@H](CO)C(=O)N[C@H](C(=O)N[C@@H](CC(=O)O)C(=O)N[C@@H](Cc1ccc(O)cc1)C(=O)N[C@@H](Cc1ccc(O)cc1)C(=O)N[C@@H](CCCNC(=N)N)C(=O)N[C@H](C(=O)N[C@@H](CC(=O)O)C(=O)O)C(C)C)[C@@H](C)O)C(C)C  Kd (YES1 SH2 domain; binding): 0.545 µM
C[C@H](NC(=O)[C@H](C)NC(=O)[C@@H](N)Cc1c[nH]c2ccccc12)C(=O)O  Kd (PRT1; ITC; pH 7.5, 25 °C): 4.29 ± 0.76 µM
